# Published values gathered from unrelated publications.
# Every numbered part comes from another study and shows a few of its results, in no order. Positions count from the first letter of the parent shown.

# Series 1
# Target: RNA binding protein fox-1 homolog 2, RRM domain, GST-SBP tag (RBFOX2, Homo sapiens, UniProt O43251-10, residues 100-194)
# Method: RNA Bind-n-Seq
# Form: RNA
# Matrix: in vitro
# Tested at: 365 nM
# Notes: natural RNA segment, single round, ends assumed
# Baseline: no-protein control
# Direction: higher = stronger binding
# Target sequence (chain): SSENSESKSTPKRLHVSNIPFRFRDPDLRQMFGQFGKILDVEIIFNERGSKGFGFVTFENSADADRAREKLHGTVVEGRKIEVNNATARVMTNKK
Sequence,RBNS enrichment (R)
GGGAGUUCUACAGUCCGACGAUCUGUUGUAAAGUUUUCCUAAACGAGGCUUUAACGUAAACACUGGUGACAUAAACCAUUCAUUGCUACCUUGCUUAUUGUGUUUUUACGCGGUUUUAUACUUUUUUUAUGAGUGGAAUUCUCGGGUGCCAA,0.365
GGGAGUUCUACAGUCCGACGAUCUGCCUCCUAGAGAAAACACUGCCUGGACUGUUCUGUGCAUCCCUCCAAACAGCAUCAUCCAAAUCCAACUGAGGACAGACGGACUGUCCCGGCCUGGGCCUGGGCUCCUAUGGAAUUCUCGGGUGCCAA,1.73
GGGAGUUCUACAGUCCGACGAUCCUCAGCCCAACCCCCUGCUUCCUGUUGGCUUUUGGGUAGCACUUGCCAUUAACAACAGCAGCCUAGAACUGACGCUUUAGUGGCCCGUCUGCAGAGCCAAAUCUUGCUCUUGGAAUUCUCGGGUGCCAA,15.1
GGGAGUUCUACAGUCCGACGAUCUCGAGAGUGGGAGUCUGGUACACCCAUUGGAACAAGUCCUUCGAUAAAUAAAACAGUUAUCACAUUCCCACAACAACCUAAACACAGACUACCUCUCCCCUCAUCAGAUCUGGAAUUCUCGGGUGCCAA,0.557
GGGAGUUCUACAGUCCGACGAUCUUGCAAAAAUUUCUACAAAAAUUGUUUUCUUCAUCCUUGUGGUGCUUAUUCAUCUGAGCCGUCUCCACAGUCCCAAUGCCUCUGCUUUUUGUUUUACUUUUGUAGCAUAAUGGAAUUCUCGGGUGCCAA,0.973
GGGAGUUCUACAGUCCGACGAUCUUUAAAUGGGUUAAAAAGAUGUUAAUAUAACAAUAUAUGAUAUAUAAACCUUAAGUGAAAUGAAAGAAAAAGAUCUAUUGCAGAUAUCUGAUGGAUGUAGUUUUCUUUUUUGGAAUUCUCGGGUGCCAA,0.732
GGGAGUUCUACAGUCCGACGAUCACCCCAGGCCCUACUCCCUAGCCUUUUCCAAGUGGGACAUGGAAGAGGCAGCCUGCUGCCUGGAUGCUGGUCUCCCCAGCAUCACUGUUCCCAUGGAGCUCAGGUCAGGCUGGAAUUCUCGGGUGCCAA,0.373
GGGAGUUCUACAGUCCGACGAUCAUCCCCUGGGCAGGGGGCGACAACUCCGUGUAGCAUUAACCCCCGUGGCGGGGUCCGCUGCUGGUCUAAUUUGGACCCCCUGCCUCUCAGUGCCCCUGCCCUAGGGGUGUUGGAAUUCUCGGGUGCCAA,0.345
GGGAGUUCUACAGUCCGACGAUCAACCCUGGCUGGACUGGAGCUCAGUGUAUAGACCAGGCUAGUCUCAAACUCUGCCUCUUCCUCCCAAGUGCUGGGAUUAAGGGCAGGUACCAUAGUGCUCAGCAACCACAUGGAAUUCUCGGGUGCCAA,0.518
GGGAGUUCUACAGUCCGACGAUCUCGCGGCCCCAGGGCGGAGCCCAGCUGCGGGAGCUGCCGCUGCUCAGCCAGUGUCGGGAAGAGUUGCCCGCCAGCCUUCCAGAGUUCCCCUACCCGAUUGGUCCCGGCCUUGGAAUUCUCGGGUGCCAA,0.62
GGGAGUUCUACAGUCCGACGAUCUUUUGGACUCACGUAAUGUAGAAUGCAAAGUUUAGUGAUUAUUUAAUCUGGGCCUAAGCUAGUGAGAGUAUGGAACAAUGGCCCAUAAGGACUCCUAAGCGCCGAAGCCAUGGAAUUCUCGGGUGCCAA,1.15
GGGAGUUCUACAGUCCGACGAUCGACUCCCACCCUGGCAUCAGACACCAGGCUUUGUCUUCUGGAGUUGCAGCCAGCGCUGCCCCAUGCCCUUCUGAUCCUCCCCCUCUCCCACCGCCCUCCCUGGAUAGGAUUGGAAUUCUCGGGUGCCAA,0.716

# Series 2
# Target: Histone acetyltransferase KAT6A, both winged helices, GST fusion (KAT6A, Homo sapiens, UniProt Q92794, residues 1-181)
# Method: protein binding microarray
# Form: double-stranded DNA, one strand shown
# Matrix: in vitro
# Tested at: not given
# Notes: 8-mer, flanks averaged, mean of 2 arrays, mostly near background
# Baseline: not given
# Direction: higher = stronger binding
# Construct (chain): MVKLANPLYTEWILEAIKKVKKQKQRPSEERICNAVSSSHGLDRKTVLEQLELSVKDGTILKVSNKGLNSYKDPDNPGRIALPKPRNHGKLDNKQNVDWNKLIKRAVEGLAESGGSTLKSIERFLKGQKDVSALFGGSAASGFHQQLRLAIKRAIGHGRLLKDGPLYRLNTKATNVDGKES
Sequence,E-score
ACTCCGGC,0.155
GGGTCCAC,-0.000395
CTACCCGC,0.247
AAGCCAGG,-0.199
CCGTGTAC,0.23
CAGAGAAA,-0.0457
TAATACGA,-0.071
ATGCATAC,-0.0726
ATGGGCTC,-0.144
CTGCGAGA,-0.0262
ACACTGGA,-0.102
AAATCTCT,-0.044
GAATCGTA,0.00266
AGTTGGGG,-0.244
TCGAGACA,-0.135
CCTTCTTC,-0.125
CTTGCGGC,0.162
CCTGAGCA,-0.089
TAGAGAGA,-0.216
GTCGGATA,0.172
AGAGCAAC,-0.149
CCATGACC,-0.046
TCGTTTCA,-0.0177
ACCTCAGC,-0.0721
AAAGAGAC,-0.184

# Series 3
# Target: CCNB2, cyclin fold, Cln2 fusion (human)
# Method: yeast growth competition, sequencing
# Matrix: yeast
# Notes: weak parent motif
# Baseline: not given
# Direction: higher = stronger binding
# Starting sequence: CDC25A docking peptide (human); PPHRRRLLFACSP
Change,normalised enrichment score
PPHRERLLFACSP [R5E],0.245
PPHRRNLLFACSP [R6N],0.742
IPHRRRLLFACSP [P1I],1.08
PPHRRRLLFACSE [P13E],0.265
PPHRRRLLFACSA [P13A],1.14
PSHRRRLLFACSP [P2S],0.472
PPHRRRLLFAESP [C11E],0.388
PPHARRLLFACSP [R4A],0.705
PPHGRRLLFACSP [R4G],0.451
PPHRLRLLFACSP [R5L],0.35
PPHRRRLLFACGP [S12G],0.589
PPHRRRLLFACSS [P13S],0.476
PPHDRRLLFACSP [R4D],0.402
PPHRRRLLFACKP [S12K],0.387
PPHRPRLLFACSP [R5P],0.235
PPDRRRLLFACSP [H3D],0.821
PPHVRRLLFACSP [R4V],0.658
PPHRRRLLFACEP [S12E],0.622
PPHRYRLLFACSP [R5Y],0.0487
PPIRRRLLFACSP [H3I],0.46
PPHRRRLEFACSP [L8E],-0.0158
PPHRRRVLFACSP [L7V],0.606
PRHRRRLLFACSP [P2R],1.43
PPHRRRLLFNCSP [A10N],-0.021
PPHRRRLLRACSP [F9R],1.21

# Series 4
# Target: ABI1, truncated, D143A, DHFR fusion (Arabidopsis thaliana)
# Method: DHFR PCA, deep sequencing
# Matrix: yeast
# Notes: methotrexate growth selection, single substitutions
# Together with: (+)-ABA 17 µM
# Baseline: wild-type fitted maximum
# Direction: higher = stronger binding
# Starting sequence: PYL1, truncated, DHFR fusion (Arabidopsis thaliana); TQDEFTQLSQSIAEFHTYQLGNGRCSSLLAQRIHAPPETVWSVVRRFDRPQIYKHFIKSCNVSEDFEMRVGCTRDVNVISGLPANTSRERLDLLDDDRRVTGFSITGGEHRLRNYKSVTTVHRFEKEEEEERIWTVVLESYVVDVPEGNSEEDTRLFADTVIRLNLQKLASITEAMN
Change,relative binding score
M68I,84.3%
V40F,-25.8%
E174D,27.5%
I33G,-4.44%
F47M,-9.71%
D95G,-10.2%
D48C,7.55%
V44W,-33.7%
D97R,83.3%
D3Y,71.3%
L156K,47.7%
R98T,57.6%
A13I,66.6%

# Series 5
# Target: Interferon regulatory factor 7, full length, phosphomimetic (IRF7, Homo sapiens, UniProt Q92985, residues 1-503, S471D/S472D/S475D/S476D/S477D/S483D/S484D/S487D)
# Method: protein-binding microarray
# Form: double-stranded DNA, one strand shown
# Matrix: in vitro
# Tested at: 2200 nM top
# Notes: 60-bp whole probe
# Together with: salmon DNA 0.4 mg/ml
# Baseline: random background probes
# Direction: higher = stronger binding
# Shared flanks, not repeated: GCCTAGCAC … GTCTTGATTCGCTTGACGCTGCTG
# Residues (chain): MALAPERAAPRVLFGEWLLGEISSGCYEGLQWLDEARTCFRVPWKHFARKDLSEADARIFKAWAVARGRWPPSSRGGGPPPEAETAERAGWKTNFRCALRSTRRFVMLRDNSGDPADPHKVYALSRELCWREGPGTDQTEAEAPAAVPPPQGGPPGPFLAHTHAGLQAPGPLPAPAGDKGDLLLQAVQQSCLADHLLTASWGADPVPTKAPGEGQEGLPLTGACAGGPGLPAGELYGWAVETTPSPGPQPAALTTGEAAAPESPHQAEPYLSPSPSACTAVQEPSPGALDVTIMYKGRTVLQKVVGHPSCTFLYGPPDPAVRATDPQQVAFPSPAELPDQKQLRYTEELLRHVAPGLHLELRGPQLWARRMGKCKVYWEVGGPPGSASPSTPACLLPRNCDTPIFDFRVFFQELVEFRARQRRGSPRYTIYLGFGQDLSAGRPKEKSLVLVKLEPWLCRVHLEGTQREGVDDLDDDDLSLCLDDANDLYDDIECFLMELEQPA
Sequence,fitted relative affinity [z-score]
GACGATATCGGTTATCGAGACGTGCTA,0.213
TCAGCTTTGACTCTTTCACTGTGCTAG,1.08
GACGATTTCAGCCTGGAGACGTGCTAG,0.516
TCAGTTTTTCATTTTTTACTGTGCTAG,2.39
TTAGGACTGAACTATCGGTTAGTGCTA,-0.384
TTAGATATCAATATCGATTAGTGCTAG,-0.174
GACGGTTCCCTTTGCCTGACGTGCTAG,1.55
TTAGGACTGCTTCTCATTTAGTGCTAG,0.603
GACGGACTGGGGTATCGGGCCGTGCTA,-1.09
TTAGCTTTCGGGTTTCGGTTAGTGCTA,11.2
TTGATTGTGGCTTTTTAATGGTGCTAG,0.347
TTAGGTTTCGGGTTTCTGTTAGTGCTA,8.44
GACGATCTCAGTTTCGAGACGTGCTAG,3.61
TTTGGTATCGACTTTCGGTTAGTGCTA,6.62
AACGATATCGGGTATCGAGACGTGCTA,0.209
GACGATCTCATTTTCGAGACGTGCTAG,3.84
TTAGGGATCGGTCTCGGTTAGTGCTAG,-0.0939
GACGAACTGACACTGGAGACGTGCTAG,-0.105
TCATGTTTCCTTGTACGACTGTGCTAG,2.41

# Some of these lines once more (series 2):
Sequence,E-score
CTTGCGGC,0.162
CTGCGAGA,-0.0262
CAGAGAAA,-0.0457
ATGCATAC,-0.0726
CCTTCTTC,-0.125
AGAGCAAC,-0.149
AAGCCAGG,-0.199
ACCTCAGC,-0.0721
TAGAGAGA,-0.216
ATGGGCTC,-0.144
CCGTGTAC,0.23
TAATACGA,-0.071
CCATGACC,-0.046
ACTCCGGC,0.155
